Published values gathered from unrelated publications.
Every numbered part comes from another study and shows a few of its results, in no order.

Set 1
Target: RNA binding protein fox-1 homolog 2, RRM domain, GST-SBP tag (RBFOX2, Homo sapiens, UniProt O43251-10, residues 100-194)
Method: RNA Bind-n-Seq
Form: RNA
Sample: in vitro
Concentration: 365 nM
Notes: natural RNA segment, single round, ends assumed
Relative to: no-protein control
Direction: higher = stronger binding
Strand	RBNS enrichment (R)
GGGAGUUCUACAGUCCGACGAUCCUCCCCUCCCUGCCGCUGUGCUCCGCUCCUCCCCACACUUCCUUGCUACAGUUCCCAGCUGCUGUAACAGAGCCACCUCCACCUCUAACAAUAAACCAAGUUCAUUGCAGUGGAAUUCUCGGGUGCCAA	0.93
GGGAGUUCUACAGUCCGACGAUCCUCCUGCUAUGCCAACCUCAGGUGACCUGCUACCAUCCUCUAUACCUUCCUCCGCCAUCUGACUUCUCUAAAGCCAUCUCUCUGGAGGCUGAGGAAGCUGUGGUAACCAUUGGAAUUCUCGGGUGCCAA	0.581
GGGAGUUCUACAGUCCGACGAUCCAAAAAAAACAACAAAAAAAGGAAAAAUAACGCUUCAAUGCUUUUAAAACAGCAAGAUAAUAGUUCUUUGAUACUUUGAGAGGCGCUUUGAUGACCCUCAUCCAAGUCUAUGGAAUUCUCGGGUGCCAA	0.465
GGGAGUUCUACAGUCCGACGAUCCCUUAGCAGCCCUGGAUGGUGGCCAGAAAUAAAGGGACCAGCCCUUCAUGGGUGGUGACGUGGUAGUCACUUGUAAGGGGAACAGAAACAUUUUUGUUCUUAUGGGGUGAUGGAAUUCUCGGGUGCCAA	0.481
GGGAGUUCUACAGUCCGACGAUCGAAGCUCUGAGAGACCAAAUAACAUGCCCAAAAUGAAGAGUGAGGAGCUGGAGUAGUUAGGGUUGACUUUGGUGGCAGCCCACCUUUCCUAACACACAUUCAGAGAAAGGUGGAAUUCUCGGGUGCCAA	0.438
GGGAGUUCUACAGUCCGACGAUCAGGGAAGUUUAGGCCAGAAUGUGGCCAUCCCAGAAACUGAGGCCUCUCUCAGCCUCACCAGUGACAGAGAACAGCUGUGGUUCUCUGCUGGCCUCAGCUGAUCCAUGCUGUGGAAUUCUCGGGUGCCAA	1.15
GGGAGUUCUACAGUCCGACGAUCAUUUCCAGUUCUAUAAUGUUUCAUGUUGAGCCAAAAGAGUAUAUCUUGCACUUUAAAAACGCUGCGUCCUAUUCCAUUUGAAUGUAAAUUCUUAAAAGUUGAGACCAAUUUGGAAUUCUCGGGUGCCAA	0.513
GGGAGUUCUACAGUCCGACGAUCUAUUACACCUUCAGAACCAUAACAUGCUUAAGAAAACUUUCCCAAAAUGUUGACCUAGUUAAAUGAGGCUAUAUAAAUUUCUAAUAUUUUACUUAUUCUAUUCAAGGCAUUGGAAUUCUCGGGUGCCAA	0.519
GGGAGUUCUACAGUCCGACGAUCCCUCUGAAUUGUGCUACAUCAGCGAACAAGUCGGCGCUUGAAUUGGAUUUUGAGGUUAUUUUAACCAUGGAAUUAUUUUUAUAGAAGGGGAAAAUGUAUGUGAAAGUCUCUGGAAUUCUCGGGUGCCAA	1.35
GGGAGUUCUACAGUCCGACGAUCCUCAUAAGAAGGGAUGGGGAGGGAAGGAAGUCGCCUUGUUUACAGACCUAUUUUUGUUGUCUUGUUCCCUAAAGGAGUUUUCUAACACUUGAAUAAAUUGGGAUACUAAAUGGAAUUCUCGGGUGCCAA	0.976
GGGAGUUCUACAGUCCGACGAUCCCCUUUAUCCUACUCAUCCCCGAUCUGGUCCCCUGUUCUCCAUAGUCCUUCACCCCCAAGCACCACUGUACAGACUGGGGACCAGCCCCUUCCCUGCCUGUGUCUCUUCCUGGAAUUCUCGGGUGCCAA	1.45
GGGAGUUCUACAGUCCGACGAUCUUGCUUCAAGCCAGUUUUUCCUUUUUACCCUCCCCCAAUCCAUGAAAGCCUAAGUGUAAAUAUAUAUCUCUUUAUAUUUGUCUAGUCUGGUAAAAGGGAAUUCAGAAGAUUGGAAUUCUCGGGUGCCAA	0.361

Set 2
Target: Sal-like protein 4, full length isoform A (SALL4, Homo sapiens, UniProt Q9UJQ4, residues 1-1053)
Chain of UniProt Q9UJQ4 (whole entry, looked up): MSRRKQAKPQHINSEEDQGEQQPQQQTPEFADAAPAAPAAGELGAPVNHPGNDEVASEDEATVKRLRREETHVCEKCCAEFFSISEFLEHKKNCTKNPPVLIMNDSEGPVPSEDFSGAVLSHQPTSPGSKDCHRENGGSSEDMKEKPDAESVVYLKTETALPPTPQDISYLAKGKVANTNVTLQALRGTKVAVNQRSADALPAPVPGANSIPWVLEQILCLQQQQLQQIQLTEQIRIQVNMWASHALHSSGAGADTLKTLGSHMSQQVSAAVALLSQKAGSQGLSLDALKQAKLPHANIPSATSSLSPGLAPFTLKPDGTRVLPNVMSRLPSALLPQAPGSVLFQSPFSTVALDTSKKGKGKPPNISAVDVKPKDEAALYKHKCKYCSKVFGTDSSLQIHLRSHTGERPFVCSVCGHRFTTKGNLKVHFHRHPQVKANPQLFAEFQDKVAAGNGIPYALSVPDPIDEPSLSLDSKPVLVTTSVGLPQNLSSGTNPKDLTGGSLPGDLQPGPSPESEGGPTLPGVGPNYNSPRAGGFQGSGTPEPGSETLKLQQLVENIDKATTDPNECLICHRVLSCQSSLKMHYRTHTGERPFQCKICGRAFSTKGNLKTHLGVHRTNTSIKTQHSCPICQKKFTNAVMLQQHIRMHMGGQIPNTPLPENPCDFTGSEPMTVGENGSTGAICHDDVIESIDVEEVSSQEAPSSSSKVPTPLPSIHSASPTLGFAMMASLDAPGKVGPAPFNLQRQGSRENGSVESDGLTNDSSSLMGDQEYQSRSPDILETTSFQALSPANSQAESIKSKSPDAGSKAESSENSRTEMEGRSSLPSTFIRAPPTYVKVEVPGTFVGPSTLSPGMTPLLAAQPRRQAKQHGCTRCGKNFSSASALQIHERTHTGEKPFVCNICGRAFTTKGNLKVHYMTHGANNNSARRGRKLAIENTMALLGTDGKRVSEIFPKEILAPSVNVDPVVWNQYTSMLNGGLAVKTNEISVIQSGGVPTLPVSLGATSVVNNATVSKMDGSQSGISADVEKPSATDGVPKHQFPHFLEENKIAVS
Method: universal PBM
Form: double-stranded DNA, one strand shown
Sample: in vitro
Concentration: 600 nM
Notes: 8-mer, flanks averaged, mean of replicates
Direction: higher = stronger binding
Strand	E-score
GTGCTGAA	-0.125
CCAACCAC	0.00124
CCCTCAGC	-0.26
GTTAAAAA	0.241
ACCACGAC	-0.234
CGGAAGCC	-0.28
ATTTTTAA	0.355
CCCGGCAA	-0.222
AGCGGTCG	-0.325
CCTTAAGC	-0.109
ACACCTGC	-0.0198
AAGTGTCT	0.0623
AGGAGTCA	0.024
ACGGGGCT	-0.3
GAACCAGA	-0.0866
TATTTAAA	0.401
AACAGGTT	0.143
CTCACTGA	-0.0456
TTATCCAA	0.282
GACGCGGA	-0.308
AGGAGTGA	-0.0322
AAAGGACA	0.0946
CCACCCGG	-0.316
GTGGATGA	-0.0445
CATTCTGC	0.0511

Set 3
Target: Runt-related transcription factor 3, Runt domain (RUNX3, Homo sapiens, UniProt Q13761, residues 53-186)
Chain of UniProt Q13761 (53-186, looked up): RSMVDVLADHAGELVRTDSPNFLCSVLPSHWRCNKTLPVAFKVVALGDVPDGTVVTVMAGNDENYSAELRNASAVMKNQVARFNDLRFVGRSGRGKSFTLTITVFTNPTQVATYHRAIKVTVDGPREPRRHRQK
Method: protein-binding microarray
Form: hairpin DNA
Sample: in vitro
Concentration: not given
Notes: whole hairpin DNA, median over replicate spots
Relative to: not given
Direction: higher = stronger binding
Strand	median fluorescence
GAGGCCCAACCGCAACAGCCTCCTGGCTGTTGCGGTTGGGCCTCACACTC (5mC at 10)	5380 a.u.
GAGGCCTGTTCGGGTTGGCCTCCTGGCCAACCCGAACAGGCCTCACACTC	5100 a.u.
GAGGCCTGCCGCGGTTGGCCTCCTGGCCAACCGCGGCAGGCCTCACACTC	6000 a.u.
GAGGCCTGTAGTGGTTGGCCTCCTGGCCAACCACTACAGGCCTCACACTC	4740 a.u.
GAGGCCTGTCGCGCGTGGCCTCCTGGCCACGCGCGACAGGCCTCACACTC (5mC at 14 30)	5520 a.u.
CTCAGTTCTGTGGCCTGGACTCCTGTCCAGGCCACAGAACTGAGACACTC (5mC at 14)	4510 a.u.
GAGGCCCCGCCGCAACAGCCTCCTGGCTGTTGCGGCGGGGCCTCACACTC	6270 a.u.
GAGGCCCAACCCGAACAGCCTCCTGGCTGTTCGGGTTGGGCCTCACACTC (5mC at 12)	4620 a.u.
CTCAGTTCTGTGGGATGGACTCCTGTCCATCCCACAGAACTGAGACACTC	3810 a.u.
GAGGCCTGTTGCGGTCGGCCTCCTGGCCGACCGCAACAGGCCTCACACTC (5mC at 28)	7900 a.u.
GAGGCCTGCTGTGGTTGGCCTCCTGGCCAACCACAGCAGGCCTCACACTC	5840 a.u.
GAGGCCTGTTGTGCGTGGCCTCCTGGCCACGCACAACAGGCCTCACACTC (5mC at 14 30)	4810 a.u.
GAGGCCCGTTGCGGTTGGCCTCCTGGCCAACCGCAACGGGCCTCACACTC	9030 a.u.
CTCAGTTCTCGGGGCTGGACTCCTGTCCAGCCCCGAGAACTGAGACACTC	4520 a.u.
GAGGCCTTTTGTGGTTGGCCTCCTGGCCAACCACAAAAGGCCTCACACTC	5110 a.u.
CTCAGTTCTGTGGGCTGGACTCCTGTCCAGCCCACAGAACTGAGACACTC	4250 a.u.
GAGGCCTGTTGCGGTGGGCCTCCTGGCCCACCGCAACAGGCCTCACACTC (5mC at 29)	6080 a.u.
GAGGCCCAATCGCAACAGCCTCCTGGCTGTTGCGATTGGGCCTCACACTC	5010 a.u.
GAGGCCCAACCGCAACAGCCTCCTGGCTGTTGCGGTTGGGCCTCACACTC (5mC at 11 33)	5430 a.u.
GAGGCCCAACCGAAACAGCCTCCTGGCTGTTTCGGTTGGGCCTCACACTC	4940 a.u.
CTCAGTCGTGTGGGCTGGACTCCTGTCCAGCCCACACGACTGAGACACTC (5mC at 7 37)	4370 a.u.
CTCAGTTCTGTGGGCTAGACTCCTGTCTAGCCCACAGAACTGAGACACTC	4060 a.u.
GAGGCCCAACCGCAACAGCCTCCTGGCTGTTGCGGTTGGGCCTCACACTC (5mC at 13)	10200 a.u.
CTCAGTTCTGTGGGGTGGACTCCTGTCCACCCCACAGAACTGAGACACTC (5mC at 30)	4060 a.u.
GAGGCCCGTCGCGGTTGGCCTCCTGGCCAACCGCGACGGGCCTCACACTC (5mC at 7 37)	5940 a.u.

Set 4
Target: Prothrombin, mature alpha-thrombin (F2, Homo sapiens, UniProt P00734)
Method: aptamer microarray, sandwich
Form: DNA with 2'F-ANA
Sample: in vitro
Concentration: 200 nM
Notes: whole 15-mer aptamer, many near background
Together with: Cy3 exosite-II aptamer, 400 nM
Direction: higher = stronger binding
Strand: GGTTGGTGTGGTTGG
Modification	mean fluorescence intensity
2'F-ANA at 1 3 5 6 8 9 11 12 14	66 a.u.
2'F-ANA at 7 13 15	500 a.u.
2'F-ANA at 1 3 6 7 8 11 13 14 15	91.7 a.u.
2'F-ANA at 6 7 9 10 12 13 14	116 a.u.
2'F-ANA at 1 2 4 5 6 8 9 10 13	48.8 a.u.
2'F-ANA at 1 2 3 4 6 9 10 11 12 13	57.5 a.u.
2'F-ANA at 2 4 6 11 13 14 15	137 a.u.
2'F-ANA at 5 6 7 8 9 10 14 15	64.2 a.u.
2'F-ANA at 6 8 12	925 a.u.
2'F-ANA at 2 3 6 7 9 10 12 14 15	248 a.u.
2'F-ANA at 2 5 6 7 9 10 12 15	55 a.u.
2'F-ANA at 1 3 4 7 9 11 12 15	297 a.u.
2'F-ANA at 2 4 5 7 13 14 15	43.9 a.u.
2'F-ANA at 2 3 5 8 10 12 13 14	64.8 a.u.
2'F-ANA at 4 6 8 9 10 12 13 14	69.5 a.u.
2'F-ANA at 2 6 8 9 11 14 15	106 a.u.

A few entries again (set 3):
Strand	median fluorescence
GAGGCCCAACCCGAACAGCCTCCTGGCTGTTCGGGTTGGGCCTCACACTC (5mC at 12)	4620 a.u.
CTCAGTTCTGTGGGATGGACTCCTGTCCATCCCACAGAACTGAGACACTC	3810 a.u.
GAGGCCTGTTGCGGTCGGCCTCCTGGCCGACCGCAACAGGCCTCACACTC (5mC at 28)	7900 a.u.
GAGGCCTGCTGTGGTTGGCCTCCTGGCCAACCACAGCAGGCCTCACACTC	5840 a.u.
GAGGCCTGTTGTGCGTGGCCTCCTGGCCACGCACAACAGGCCTCACACTC (5mC at 14 30)	4810 a.u.
GAGGCCCGTTGCGGTTGGCCTCCTGGCCAACCGCAACGGGCCTCACACTC	9030 a.u.
CTCAGTTCTCGGGGCTGGACTCCTGTCCAGCCCCGAGAACTGAGACACTC	4520 a.u.
